Experimental data gathered from unrelated publications.
Numbered parts are unrelated; each lists some results of a single study. Values joined by “and” are separate records of one study, mostly repeats; a detail may differ.
Chain of UniProt Q9UJQ4 (whole entry, looked up): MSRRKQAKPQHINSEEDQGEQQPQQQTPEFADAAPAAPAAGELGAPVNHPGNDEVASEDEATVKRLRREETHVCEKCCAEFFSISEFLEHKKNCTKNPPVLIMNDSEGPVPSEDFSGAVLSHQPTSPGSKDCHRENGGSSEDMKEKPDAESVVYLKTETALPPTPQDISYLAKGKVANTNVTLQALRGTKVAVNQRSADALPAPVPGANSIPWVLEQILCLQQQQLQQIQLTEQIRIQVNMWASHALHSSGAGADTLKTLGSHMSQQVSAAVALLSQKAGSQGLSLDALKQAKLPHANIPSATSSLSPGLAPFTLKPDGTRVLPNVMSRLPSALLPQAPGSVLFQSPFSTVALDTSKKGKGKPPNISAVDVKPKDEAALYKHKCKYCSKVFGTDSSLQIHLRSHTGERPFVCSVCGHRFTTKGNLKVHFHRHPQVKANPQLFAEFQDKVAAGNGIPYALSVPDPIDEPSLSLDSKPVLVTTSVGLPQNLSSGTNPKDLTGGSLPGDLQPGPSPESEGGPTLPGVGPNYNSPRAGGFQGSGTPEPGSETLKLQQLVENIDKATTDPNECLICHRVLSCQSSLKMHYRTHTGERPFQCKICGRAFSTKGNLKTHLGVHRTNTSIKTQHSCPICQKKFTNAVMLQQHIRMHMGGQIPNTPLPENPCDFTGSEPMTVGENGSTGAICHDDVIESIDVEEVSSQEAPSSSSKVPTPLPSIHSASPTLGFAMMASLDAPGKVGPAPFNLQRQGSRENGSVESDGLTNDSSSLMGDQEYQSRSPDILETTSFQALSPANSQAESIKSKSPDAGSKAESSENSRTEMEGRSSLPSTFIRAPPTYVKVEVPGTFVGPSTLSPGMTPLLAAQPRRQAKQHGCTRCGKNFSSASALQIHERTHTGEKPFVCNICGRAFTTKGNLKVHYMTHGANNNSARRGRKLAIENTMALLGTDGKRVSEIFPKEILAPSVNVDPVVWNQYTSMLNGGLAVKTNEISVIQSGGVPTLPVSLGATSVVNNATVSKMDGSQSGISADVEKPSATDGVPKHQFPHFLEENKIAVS
Chain of UniProt Q13422 (whole entry, looked up): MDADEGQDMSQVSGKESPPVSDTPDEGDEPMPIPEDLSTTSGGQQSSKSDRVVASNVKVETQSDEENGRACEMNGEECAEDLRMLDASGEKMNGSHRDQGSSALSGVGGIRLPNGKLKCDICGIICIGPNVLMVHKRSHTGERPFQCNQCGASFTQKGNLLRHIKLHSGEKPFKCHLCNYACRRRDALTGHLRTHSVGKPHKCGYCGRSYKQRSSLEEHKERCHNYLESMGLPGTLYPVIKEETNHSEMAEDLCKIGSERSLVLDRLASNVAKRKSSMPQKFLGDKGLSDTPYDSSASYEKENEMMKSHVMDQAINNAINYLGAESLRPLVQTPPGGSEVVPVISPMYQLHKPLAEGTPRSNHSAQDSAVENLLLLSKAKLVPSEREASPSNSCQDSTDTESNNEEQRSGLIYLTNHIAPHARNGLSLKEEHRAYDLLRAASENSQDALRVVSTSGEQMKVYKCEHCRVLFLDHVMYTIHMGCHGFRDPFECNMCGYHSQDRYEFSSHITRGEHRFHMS

Series 1 — route: oral; endpoint: tumour volume
SMILES: CC(C)C[C@@H]1NC(=O)[C@@H](N(C)C(=O)[C@@H](NC(=O)[C@@H]2C[C@@H](F)CN2C(=O)C2(C(F)(F)F)CC(F)(F)C2)C2CC2)CCCCCCCN(C)C(=O)[C@H](Cc2cc(Cl)cnc2OC2CC2)N(C)C1=O
mouse, sample A SCLC PDX; 100 mg/kg three times daily, day 0: 140 mm3 and 158 mm3 and 205 mm3 and 115 mm3 and 162 mm3
mouse, sample A SCLC PDX; 100 mg/kg three times daily, day 18: 291 mm3 and 162 mm3 and 160 mm3 and 150 mm3
NSG mice, sample B SCLC PDX; 100 mg/kg twice daily, day 12: 184 mm3 and 223 mm3 and 206 mm3 and 300 mm3 and 214 mm3
mouse, sample A SCLC PDX; 100 mg/kg three times daily, day 7: 115 mm3 and 218 mm3 and 140 mm3 and 125 mm3 and 198 mm3
NSG mice, sample B SCLC PDX; 100 mg/kg twice daily, day 5: 241 mm3 and 214 mm3 and 253 mm3 and 182 mm3 and 183 mm3
NSG mice, sample B SCLC PDX; 100 mg/kg twice daily, day 26: 348 mm3 and 308 mm3 and 223 mm3 and 395 mm3 and 282 mm3

Series 2 — action: degrader; endpoint: remaining protein
Compound: Cn1cc(-c2cccc(CN3CCC4(CC3)COc3c4ccc4c3CN([C@H]3CCC(=O)NC3=O)C4=O)c2)cn1
IKZF4: Zinc finger protein Eos (IKZF4, Homo sapiens, UniProt Q9H2S9)
Chain of UniProt Q9H2S9 (whole entry, looked up): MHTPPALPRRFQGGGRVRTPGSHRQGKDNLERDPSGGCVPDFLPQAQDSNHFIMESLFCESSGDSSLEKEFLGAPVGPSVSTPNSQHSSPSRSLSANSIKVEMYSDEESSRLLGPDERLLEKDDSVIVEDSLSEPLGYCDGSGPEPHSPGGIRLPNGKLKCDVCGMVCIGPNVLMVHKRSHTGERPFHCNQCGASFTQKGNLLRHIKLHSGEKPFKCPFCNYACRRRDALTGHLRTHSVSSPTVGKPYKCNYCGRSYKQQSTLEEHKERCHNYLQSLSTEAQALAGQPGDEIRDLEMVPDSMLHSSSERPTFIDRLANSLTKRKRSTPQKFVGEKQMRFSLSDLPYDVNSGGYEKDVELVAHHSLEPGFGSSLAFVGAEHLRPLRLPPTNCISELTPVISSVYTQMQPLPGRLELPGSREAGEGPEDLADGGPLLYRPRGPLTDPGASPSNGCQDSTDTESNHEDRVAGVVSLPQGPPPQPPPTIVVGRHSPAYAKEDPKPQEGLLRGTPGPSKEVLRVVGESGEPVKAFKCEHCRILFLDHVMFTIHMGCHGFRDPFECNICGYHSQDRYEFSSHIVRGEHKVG
CRBN/Zinc finger protein Helios: CRBN/Zinc finger protein Helios (Homo sapiens, UniProt Q96SW2+Q9UKS7)
Chain of UniProt Q9UKS7 (whole entry, looked up): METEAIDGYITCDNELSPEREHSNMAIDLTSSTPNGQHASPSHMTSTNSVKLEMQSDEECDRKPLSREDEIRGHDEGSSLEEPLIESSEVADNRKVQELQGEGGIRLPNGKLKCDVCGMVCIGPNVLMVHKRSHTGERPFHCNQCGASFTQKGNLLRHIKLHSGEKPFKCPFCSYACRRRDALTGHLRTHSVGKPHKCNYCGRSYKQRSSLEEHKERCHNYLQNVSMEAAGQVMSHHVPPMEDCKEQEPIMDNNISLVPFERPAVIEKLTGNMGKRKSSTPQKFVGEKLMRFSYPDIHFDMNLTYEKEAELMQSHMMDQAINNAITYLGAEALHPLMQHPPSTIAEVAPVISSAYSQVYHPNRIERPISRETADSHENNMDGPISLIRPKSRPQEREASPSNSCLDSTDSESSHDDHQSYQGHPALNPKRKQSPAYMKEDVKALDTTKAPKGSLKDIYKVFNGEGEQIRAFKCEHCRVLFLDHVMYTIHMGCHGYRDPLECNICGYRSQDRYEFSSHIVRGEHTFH
Chain of UniProt Q96SW2 (whole entry, looked up): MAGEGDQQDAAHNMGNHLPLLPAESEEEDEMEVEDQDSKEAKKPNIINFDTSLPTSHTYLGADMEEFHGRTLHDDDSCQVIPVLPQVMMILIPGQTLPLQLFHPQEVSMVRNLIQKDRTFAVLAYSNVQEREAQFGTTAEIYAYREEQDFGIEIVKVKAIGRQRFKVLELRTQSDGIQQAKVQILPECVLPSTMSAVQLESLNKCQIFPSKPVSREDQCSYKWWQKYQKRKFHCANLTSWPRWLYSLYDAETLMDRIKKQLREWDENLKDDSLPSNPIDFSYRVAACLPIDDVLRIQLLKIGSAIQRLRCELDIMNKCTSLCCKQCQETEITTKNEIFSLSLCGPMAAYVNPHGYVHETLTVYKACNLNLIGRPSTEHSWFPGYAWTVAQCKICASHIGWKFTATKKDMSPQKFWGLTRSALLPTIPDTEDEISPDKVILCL
Zinc finger protein Aiolos: Zinc finger protein Aiolos (Homo sapiens, UniProt Q9UKT9)
Chain of UniProt Q9UKT9 (whole entry, looked up): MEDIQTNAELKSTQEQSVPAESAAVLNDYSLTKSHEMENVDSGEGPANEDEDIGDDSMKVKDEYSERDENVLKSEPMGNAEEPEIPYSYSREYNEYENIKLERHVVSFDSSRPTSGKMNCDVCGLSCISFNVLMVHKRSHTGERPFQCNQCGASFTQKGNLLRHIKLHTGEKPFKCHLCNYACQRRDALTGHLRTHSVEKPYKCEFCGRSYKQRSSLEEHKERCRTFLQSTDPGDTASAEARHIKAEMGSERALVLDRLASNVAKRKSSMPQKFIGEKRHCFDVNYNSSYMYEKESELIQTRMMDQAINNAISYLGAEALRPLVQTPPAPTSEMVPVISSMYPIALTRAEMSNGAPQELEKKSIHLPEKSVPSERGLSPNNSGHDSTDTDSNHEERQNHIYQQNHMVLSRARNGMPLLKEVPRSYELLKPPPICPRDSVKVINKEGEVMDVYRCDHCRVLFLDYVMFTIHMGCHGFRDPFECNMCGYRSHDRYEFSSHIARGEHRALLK
CSNK1A1: Casein kinase I isoform alpha (CSNK1A1, Homo sapiens, UniProt P48729)
Chain of UniProt P48729 (whole entry, looked up): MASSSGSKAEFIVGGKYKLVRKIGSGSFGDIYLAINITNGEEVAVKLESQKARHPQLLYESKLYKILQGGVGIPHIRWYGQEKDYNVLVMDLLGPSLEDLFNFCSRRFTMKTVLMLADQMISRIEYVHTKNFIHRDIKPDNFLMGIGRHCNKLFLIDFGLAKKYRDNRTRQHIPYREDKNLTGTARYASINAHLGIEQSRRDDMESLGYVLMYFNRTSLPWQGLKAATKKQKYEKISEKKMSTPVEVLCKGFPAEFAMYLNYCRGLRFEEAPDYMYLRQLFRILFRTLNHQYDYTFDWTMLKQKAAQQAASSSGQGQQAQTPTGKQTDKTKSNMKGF
GSPT1: Eukaryotic peptide chain release factor GTP-binding subunit ERF3A (GSPT1, Homo sapiens, UniProt P15170)
Chain of UniProt P15170 (whole entry, looked up): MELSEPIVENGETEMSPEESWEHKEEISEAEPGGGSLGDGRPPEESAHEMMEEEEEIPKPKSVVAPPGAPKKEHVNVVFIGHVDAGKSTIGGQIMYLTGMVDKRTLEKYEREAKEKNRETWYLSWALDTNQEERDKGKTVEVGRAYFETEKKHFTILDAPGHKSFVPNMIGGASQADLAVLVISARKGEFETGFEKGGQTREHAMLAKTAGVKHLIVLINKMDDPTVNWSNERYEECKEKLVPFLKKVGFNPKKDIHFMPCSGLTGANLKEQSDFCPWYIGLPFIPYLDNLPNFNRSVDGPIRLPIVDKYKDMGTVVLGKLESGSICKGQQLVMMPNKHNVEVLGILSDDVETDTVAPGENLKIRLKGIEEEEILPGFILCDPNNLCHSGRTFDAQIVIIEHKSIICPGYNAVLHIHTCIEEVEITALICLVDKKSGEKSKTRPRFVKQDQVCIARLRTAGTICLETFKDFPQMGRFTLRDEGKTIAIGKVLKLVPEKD
IKZF4; HiBiT; HEK293; 4.115 nM, 6 h: 97.1% and 102%
CRBN/Zinc finger protein Helios; flow cytometry; primary human regulatory T cells; 12.35 nM, 3 h: 67.1% and 61.4%
Zinc finger protein Aiolos; HiBiT; HEK293; 1111.11 nM: 87.8% and 91.4%
Zinc finger protein Aiolos; HiBiT; HEK293; 10000 nM: 83.9% and 88.3%
CSNK1A1; HiBiT; HEK293; 1.524 nM: 106% and 100%
Sal-like protein 4 (SALL4, Homo sapiens, UniProt Q9UJQ4); HiBiT; HEK293; 4.572 nM: 82.6% and 87.6%
IKZF4; HiBiT; HEK293; 0.1524 nM, 3 h: 97.9% and 108%
DNA-binding protein Ikaros (Homo sapiens, UniProt Q13422); HiBiT; HEK293; 4.572 nM: 98.1% and 91.7%
IKZF4; HiBiT; HEK293; 0.4572 nM, 6 h: 105% and 100%
GSPT1; HiBiT; HEK293; 1111.11 nM: 97.2% and 100%
CSNK1A1; HiBiT; HEK293; 0.1694 nM: 106% and 97.7%
GSPT1; HiBiT; HEK293; 10000 nM: 101% and 110%
GSPT1; HiBiT; HEK293; 41.15 nM: 96.6% and 99.7%
CRBN/Zinc finger protein Helios; flow cytometry; Jurkat; 0.2 nM: 99.6% and 103%

Series 3 — cell line: U-87 MG; tested at: concentration not given; relative to: DMSO; endpoint: log2 fold change
Compound: CCN1/C(=C/C=C2\CCCC(/C=C/C3=[N+](CC)c4ccccc4C3(C)C)=C2NCCCCCCCCN2CCC(Nc3nc4ccccc4n3Cc3ccc(F)cc3)CC2)C(C)(C)c2ccccc21
refers to: ERICH2 mRNA: 1.82
refers to: LRP1B mRNA: 1.69
refers to: B3GLCT mRNA: -0.857
refers to: NCAPD2 mRNA: -1.56
refers to: ANO3 mRNA: 4.51
refers to: PGAP3 mRNA: -0.974
refers to: RMI2 mRNA: -1.95
refers to: C9orf40 mRNA: -1.13

Other studies, line by line
C=CCN1C(=O)C(O)(C(=O)O)Oc2cc(F)ccc21 (centres unmarked) — inhibition (Abutilon theophrasti; fresh weight; 150 g ai/ha, pre-emergence treatment): 87.2% and 84.3% and 94.3%

Some of these lines once more (series 3):
refers to: ERICH2 mRNA: 1.82
refers to: LRP1B mRNA: 1.69
refers to: B3GLCT mRNA: -0.857
